Measured values of several laboratories.
Numbers after ± are the reported error.

With `CCCCCCCCCCCCCC(=O)N[C@@H](Cc1ccccc1)C(=O)N[C@@H](Cc1ccccc1)C(=O)N[C@@H](Cc1ccccc1)C(=O)N[C@@H](Cc1ccc(O)cc1)C(=O)NCC(=O)N[C@@H](CCCNC(=N)N)C(=O)N[C@@H](CCCCN)C(=O)N[C@@H](CCCCN)C(=O)N[C@@H](CCCNC(=N)N)C(=O)N[C@@H](CCCNC(=N)N)C(=O)N[C@@H](CCC(N)=O)C(=O)N[C@@H](CCCNC(=N)N)C(=O)N[C@@H](CCCNC(=N)N)C(=O)N[C@@H](CCCNC(=N)N)C(=O)O` the CC50 was 21 µM (RAW264.7; cell growth or viability).
For `CC1CC(C(F)F)n2nc(C(=O)O)nc2N1` (stereo not shown), the CC50 was > 100 µM (Vero (eGFP); 15 h).
For `COC(=O)c1c(C)cc(O)c(=O)c(O)c1Br`, the CC50 was 78 ± 31 µM (HepDES19).
`CC(C)[C@H](O)C(=O)N[C@@H](C)C(=O)N[C@@H]1C(=O)N(C)CCc2ccccc21` has a CC50 of > 64 µM (Huh-7.5.1; cell growth or viability, ATP luminescence; 48 h).
With `CC(=O)c1c(C)cc(O)c(=O)c(O)c1Br` the CC50 was 43 ± 4.1 µM (HepDES19).
`C[C@H](NC(=O)Cc1cc(F)cc(F)c1)C(=O)N[C@@H]1C(=O)N(C)c2ccccc2-c2ccccc21` has a CC50 of 31.5 µM (Huh-7.5.1; cell growth or viability, ATP luminescence; 48 h).
The CC50 of `Oc1ccc([C@@H]2Oc3ccc(/C=C/c4cc(O)cc(O)c4)cc3[C@H]2c2cc(O)cc(O)c2)cc1` is reported as 27.1 µM (human cells; 48 (unit not given)).
For `CCC(C)C1OC2(CCC1C)CC1CC(C/C=C(\C)C(OC3CC(OC)C(OC4CC(OC)C(O)C(C)O4)C(C)O3)C(C)/C=C/C=C3\COC4C(O)C(C)=CC(C(=O)O1)C34O)O2` (stereo not shown), the CC50 was > 100 µM (Calu-3; cell growth or viability, MTS; 48 h).
The CC50 of `COC(=O)c1cn([C@H]2C[C@@H](C(=O)NCc3cccc(C(F)(F)F)c3)N(C3CCN(Cc4ccccc4)CC3)C2)nn1` is reported as > 100 µM (Vero (eGFP); 15 h).
With `COc1cc(O)c2c(c1)/C=C/C[C@H](O)[C@H](O)C(=O)/C=C\C[C@H](C)OC2=O` the CC50 was > 60 µM (Calu-3; cell growth or viability, resazurin).
The CC50 of `O=C(N[C@@H](Cc1ccccc1)C(=O)N[C@@H](C[C@@H]1CCNC1=O)C(O)S(=O)(=O)O)OCc1ccccc1` (stereo partly shown) is reported as 214 ± 7.2 µM (MDCK; 5 (unit not given)).
For `O=C(Nc1ccccc1SSc1ccccc1NC(=O)c1ccccc1)c1ccccc1`, the CC50 was 20 µg/mL (MDCK; cell growth or viability, trypan blue; 72 h).
The CC50 of `Cc1cc(O)c(=O)c(O)cc1C(=O)c1ccccc1` is reported as 35 ± 11 µM (HepDES19).
With `COc1cc(/C=C/c2ccc3c(c2)[C@@H](c2cc(OC)cc(OC)c2)[C@H](c2ccc(O)cc2)O3)cc(OC)c1` the CC50 was 236 µM (Calu-3; 24 (unit not given)).
With `O=C(c1ccco1)n1nnc2ccccc21` the CC50 was > 100 µM (Vero (eGFP); 15 h).
`O=c1c(O)ccc(-c2ccc(-c3ccccc3)cc2)cc1O` gave a CC50 of 20 ± 9.3 µM (HepDES19).
For `Cc1cc(C(=O)NC2C=CS(=O)(=O)C2)c2c(C)nn(C)c2n1` (stereo not shown), the CC50 was > 100 µM (Vero (eGFP); 15 h).
With `COC(=O)c1c2c(cc(O)c(=O)c1O)COC2=O` the CC50 was > 77 µM (HepDES19).
`COc1cc(OC)cc([C@@H]2c3cc(/C=C/c4cc(O)cc(O)c4)ccc3O[C@H]2c2ccc(O)cc2)c1` has a CC50 of 38.1 µM (Calu-3; 24 (unit not given)).
For `COC(=O)c1cc(O)c(=O)c(O)cc1C`, the CC50 was > 92 µM (HepDES19).
`CC(C)C(=O)OC[C@H]1O[C@@](C#N)(n2ccc(N)nc2=O)[C@H](O)[C@@H]1O` gave a CC50 of > 100 µM (Calu-3; cell growth or viability).
`COc1ccc2c3c([nH]c2c1)[C@H](CC(C)C)N1C(=O)[C@H](CCC(=O)OC(C)(C)C)NC(=O)[C@@H]1C3` gave a CC50 of 22.9 µM (A549; MTT; 72 h, second print).
For `O=c1c(O)ccccc1O`, the CC50 was > 100 µM (HepDES19).
`N=C(N)NCCC[C@H](NC(=O)[C@H](CCCNC(=N)N)NC(=O)[C@H](CCCNC(=N)N)NC(=O)[C@H](CCC(N)=O)NC(=O)[C@H](CCCNC(=N)N)NC(=O)[C@H](CCCNC(=N)N)NC(=O)[C@H](CCCCN)NC(=O)[C@H](CCCCN)NC(=O)[C@H](CCCNC(=N)N)NC(=O)CNC(=O)[C@H](Cc1ccc(O)cc1)NC(=O)[C@H](Cc1ccccc1)NC(=O)[C@H](Cc1ccccc1)NC(=O)[C@H](Cc1ccccc1)NC(=O)OCC1c2ccccc2-c2ccccc21)C(=O)O` has a CC50 of > 64 µM (RAW264.7; cell growth or viability).
`COc1cc(/C=C/c2ccc3c(c2)[C@@H](c2cc(O)cc(O)c2)[C@H](c2ccc(O)cc2)O3)cc(OC)c1` gave a CC50 of 26.2 µM (human cells; 48 (unit not given)).

Some of these lines once more:
`N=C(N)NCCC[C@H](NC(=O)[C@H](CCCNC(=N)N)NC(=O)[C@H](CCCNC(=N)N)NC(=O)[C@H](CCC(N)=O)NC(=O)[C@H](CCCNC(=N)N)NC(=O)[C@H](CCCNC(=N)N)NC(=O)[C@H](CCCCN)NC(=O)[C@H](CCCCN)NC(=O)[C@H](CCCNC(=N)N)NC(=O)CNC(=O)[C@H](Cc1ccc(O)cc1)NC(=O)[C@H](Cc1ccccc1)NC(=O)[C@H](Cc1ccccc1)NC(=O)[C@H](Cc1ccccc1)NC(=O)OCC1c2ccccc2-c2ccccc21)C(=O)O` has a CC50 of > 64 µM (RAW264.7; cell growth or viability).
For `COC(=O)c1cc(O)c(=O)c(O)cc1C`, the CC50 was > 92 µM (HepDES19).
